# Published values collected from several papers.
# Parts stem from different laboratories: compare values within a part only. Positions count from the first letter of the parent shown.

# Study 1 — observed: binding; method: phage display NGS; form: peptide; notes: panning round 2; relative to: input library
# Target: UDP-N-acetylglucosamine--peptide N-acetylglucosaminyltransferase 110 kDa subunit (OGT, Homo sapiens, UniProt O15294)
# Sequence of UniProt O15294 (whole entry, looked up): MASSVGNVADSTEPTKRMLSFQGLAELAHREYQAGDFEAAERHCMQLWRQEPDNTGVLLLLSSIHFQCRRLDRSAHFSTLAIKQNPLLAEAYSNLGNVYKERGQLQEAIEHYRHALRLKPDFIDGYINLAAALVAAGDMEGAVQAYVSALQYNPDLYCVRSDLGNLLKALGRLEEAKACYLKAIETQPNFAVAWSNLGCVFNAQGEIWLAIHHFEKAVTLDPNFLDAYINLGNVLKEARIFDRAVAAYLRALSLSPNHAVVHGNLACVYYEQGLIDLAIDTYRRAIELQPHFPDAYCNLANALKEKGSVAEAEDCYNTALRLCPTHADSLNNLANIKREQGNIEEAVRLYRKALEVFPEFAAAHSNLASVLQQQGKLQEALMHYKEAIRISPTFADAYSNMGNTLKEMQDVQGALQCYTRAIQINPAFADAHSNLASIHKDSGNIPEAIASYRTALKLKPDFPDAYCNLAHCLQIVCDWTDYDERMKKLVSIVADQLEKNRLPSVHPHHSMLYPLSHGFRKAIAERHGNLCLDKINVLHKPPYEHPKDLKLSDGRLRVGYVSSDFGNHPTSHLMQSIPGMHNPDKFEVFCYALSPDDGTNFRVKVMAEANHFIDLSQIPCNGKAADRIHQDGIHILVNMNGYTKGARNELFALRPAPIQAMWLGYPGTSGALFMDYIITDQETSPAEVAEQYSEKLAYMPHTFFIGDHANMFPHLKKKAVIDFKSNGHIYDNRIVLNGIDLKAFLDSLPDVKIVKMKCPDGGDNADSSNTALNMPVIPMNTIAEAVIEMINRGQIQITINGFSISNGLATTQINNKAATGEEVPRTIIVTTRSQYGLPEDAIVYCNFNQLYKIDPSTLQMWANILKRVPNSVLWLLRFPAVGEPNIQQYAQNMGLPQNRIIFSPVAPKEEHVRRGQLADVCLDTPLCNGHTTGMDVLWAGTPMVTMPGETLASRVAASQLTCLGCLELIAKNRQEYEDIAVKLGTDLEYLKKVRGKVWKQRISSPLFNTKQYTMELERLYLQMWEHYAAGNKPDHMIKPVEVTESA
Molecule,minimum log2 enrichment ratio
QPQHQSNQHVHHRYF,1.69
SNFMPFYIIQVKADT,4.23
MFMPHYQIIMSATES,6.51

# Study 2 — target: DBP, bZIP domain (human); method: DHFR protein complementation; matrix: yeast; relative to: wild-type JUN-FOS pair; reading: higher = stronger binding
# Notes: single substitutions, most at no-binding floor
# Parent: JUN, bZIP domain (human); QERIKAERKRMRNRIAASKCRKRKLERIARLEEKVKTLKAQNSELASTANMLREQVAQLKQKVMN; partner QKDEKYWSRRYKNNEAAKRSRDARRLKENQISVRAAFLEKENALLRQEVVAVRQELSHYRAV
Substitution,binding fitness [natural log]
S43L,-1.51
V35Q,-1.52
R30A,-1.47
A29P,-1.52
L38P,-1.48
T37A,-1.36
I28W,-1.41
V35A,-1.35

# Study 3 — target: CCND3, cyclin fold, Cln2 fusion (human); method: yeast growth competition, sequencing; matrix: yeast; notes: weak parent motif; relative to: not given; reading: higher = stronger binding; parent: viral docking peptide; PTARRRLLHDLDT
Substitution,normalised enrichment score
R5K,0.135
R5K L8F,-0.123
D12A,0.0554
L11A,0.0979
P1A,0.13
T13A,0.12
R4A,0.0291
L8A,0.0881

# Study 4 — target: tungstate, free oxyanion; method: microfluidic competitive inhibition; matrix: in vitro, cell-free expressed; concentration: not given; reading: lower = stronger binding
# Notes: derived from inhibition constants, unchanged parent 2230 nM
# Parent: PafA, mature enzyme, eGFP fusion (Elizabethkingia meningoseptica, UniProt Q9KJX5); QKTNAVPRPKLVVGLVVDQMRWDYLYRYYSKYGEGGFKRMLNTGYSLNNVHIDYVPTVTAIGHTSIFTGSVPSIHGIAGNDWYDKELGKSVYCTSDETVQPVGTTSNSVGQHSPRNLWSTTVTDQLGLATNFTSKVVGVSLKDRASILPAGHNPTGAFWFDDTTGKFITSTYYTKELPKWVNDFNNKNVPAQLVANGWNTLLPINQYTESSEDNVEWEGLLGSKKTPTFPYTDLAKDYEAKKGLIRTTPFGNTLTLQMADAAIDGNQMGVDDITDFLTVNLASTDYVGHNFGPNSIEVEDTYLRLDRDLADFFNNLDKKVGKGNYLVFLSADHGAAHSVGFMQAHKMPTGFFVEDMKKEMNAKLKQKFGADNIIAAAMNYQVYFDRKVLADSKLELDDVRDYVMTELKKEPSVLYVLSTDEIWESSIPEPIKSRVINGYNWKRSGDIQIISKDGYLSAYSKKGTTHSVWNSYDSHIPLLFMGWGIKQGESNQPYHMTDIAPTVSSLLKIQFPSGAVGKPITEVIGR
Substitution,oxyanion analog dissociation constant
D143V,10.9 µM
G514V,980 nM
E209V,2.19 µM
Y54G,1.66 µM

# Repeated from above (study 3):
Substitution,normalised enrichment score
L11A,0.0979
